Results gathered from unrelated publications.
Each numbered part is a random draw from the data of one study; scales do not carry over between parts. Positions count from the first letter of the parent shown.

Sample 1
Target: Centromere-binding protein 1, full length, N-terminal tag (CBF1, Saccharomyces cerevisiae, UniProt P17106, residues 1-351)
Chain of UniProt P17106 (whole entry, looked up): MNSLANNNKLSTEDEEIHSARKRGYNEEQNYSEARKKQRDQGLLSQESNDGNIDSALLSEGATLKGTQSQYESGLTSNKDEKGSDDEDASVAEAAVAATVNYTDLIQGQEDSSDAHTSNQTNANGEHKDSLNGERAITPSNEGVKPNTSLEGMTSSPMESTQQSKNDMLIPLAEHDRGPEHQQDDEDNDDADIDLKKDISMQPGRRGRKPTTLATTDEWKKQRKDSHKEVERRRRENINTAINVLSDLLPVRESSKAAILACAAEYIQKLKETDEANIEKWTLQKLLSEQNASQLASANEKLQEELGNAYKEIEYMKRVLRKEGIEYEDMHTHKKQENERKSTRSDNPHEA
Technique: protein-binding microarray
Molecule type: double-stranded DNA, one strand shown
Sample: in vitro
Concentration: 0.8 µM
Setting: whole 60-bp probe, no competitor
Reading: higher = stronger binding
All sequences stand within: … GTCTTGATTCGCTTGACGCTGCTG
Oligonucleotide	fluorescence intensity [a.u.]
CTACCCTGGTTTGGTCACGCAAAACCGAAAGGCTTC	654
GAAATTTCTATCCCACTCGTGAGTAATGGCTTATAG	520
CTATCTTCTGTGGACGTGACAACGTTACGTATATTC	696
GAATGTGCTACAGCCGTGGTGGTTAACCCCCTTTAG	478
CTAATTCACAGCTTTTACGTGCTATTTTTGGTCTTC	482
GAAAGAAATGAAAACCCCGTGGTTATAAATTAGTAG	1390
CTATTTTGTATAAATCACGGAAGGGATGATTTATTC	597
CTATTCAAAGATGATCACGGCTGTTCTCGGAGTTTC	566
CTACTTACTCGGTATCACATGGAAAAGACCCCCTTC	1090
GAAAGAAGTAATATTATCATGATGAATGAATGATAG	554
CTAGTTTACACCAATCGCGTGGGGCAAGGGGCTTTC	520
CTAACTTCAACACGCCACCTGGTCTTGGGGTAATTC	787
CTAGTCGGTTCATTGCATGTGCTGTTACACTTCTTC	621
CTAAGTGAAAACGGAGTGGTGATGAAGATGGGGTTC	511

Sample 2
Target: Interferon regulatory factor 7, full length, phosphomimetic (IRF7, Homo sapiens, UniProt Q92985, residues 1-503, S101K/S471D/S472D/S475D/S476D/S477D/S483D/S484D/S487D)
Chain of UniProt Q92985 (whole entry, unmodified, looked up): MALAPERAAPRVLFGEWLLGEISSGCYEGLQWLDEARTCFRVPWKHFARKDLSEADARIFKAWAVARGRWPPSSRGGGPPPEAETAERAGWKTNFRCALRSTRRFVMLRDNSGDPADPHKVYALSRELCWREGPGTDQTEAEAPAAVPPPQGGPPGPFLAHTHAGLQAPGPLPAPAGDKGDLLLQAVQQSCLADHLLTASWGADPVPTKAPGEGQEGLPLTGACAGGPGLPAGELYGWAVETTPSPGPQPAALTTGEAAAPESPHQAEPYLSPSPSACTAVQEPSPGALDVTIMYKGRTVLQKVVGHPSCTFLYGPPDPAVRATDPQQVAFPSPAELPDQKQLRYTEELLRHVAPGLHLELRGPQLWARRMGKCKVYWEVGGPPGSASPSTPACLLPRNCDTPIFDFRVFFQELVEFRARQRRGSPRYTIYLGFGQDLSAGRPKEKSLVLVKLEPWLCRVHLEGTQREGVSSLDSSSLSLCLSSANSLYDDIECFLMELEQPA
Technique: protein-binding microarray
Molecule type: double-stranded DNA, one strand shown
Sample: in vitro
Concentration: 250 nM
Setting: 60-bp whole probe
With: salmon DNA 0.4 mg/ml
Baseline: random background probes
Reading: higher = stronger binding
All sequences stand within: GCCTAGCAC … GTCTTGATTCGCTTGACGCTGCTG
Oligonucleotide	log fluorescence [z-score]
GACCAACTGAGACTGGAGACGTGCTAG	-0.0198
GTAGGCTTCTATGTAGTTGAGTGCTAG	-0.715
TTACGTCTCCTTTTCCTTTAGTGCTAG	1.45
TCAACTAGGAGTTTTCAGACTGTGCTA	-0.628
TTAGGTATCGGTTATCGGTTAGTGCTA	1.92
TTAGATTTCCGGTATCGATTAGTGCTA	1.95
TTAGGTTTCGGTATTGGTTAGTGCTAG	10.3
GACGATTTCGGGTATGGAGACGTGCTA	0.479
TTAGGTAACGGTATCGGTTAGTGCTAG	1.47
TTAGGTTTCCTTCTCTTTTAGTGCTAG	2.94
TAGCTTCCATTTTCTGAACGTGTGCTA	1.22
GGACACGGATGCGGTCTGCCGTGCTAG	-0.0882
GACGGTTTCGGTACTGGGGACGTGCTA	6.21
TTATCAATCATTTTAGTTTTGTGCTAG	0.653
CACGAACTGAGTATCGAGACGTGCTAG	0.077
TTAGGATTCGGTTCCGGTTAGTGCTAG	5.95
TTAGGTTTCGACACTGGGATAGTGCTA	3.88
TTAGATTTCACACTGGATTAGTGCTAG	0.077
ACTAATTTTCATTTTCCAAAGTGCTAG	2.26
GACGGTATCGGGTTTCGAGACGTGCTA	4.18
CTGCATTTTTTTTTTCTACTGTGCTAG	0.452
TTAGGAATCGGTCTCGGTTAGTGCTAG	2.09
TTAGGTTTTGACTATCGGTTAGTGCTA	0.223

Sample 3
Target: RNA binding protein fox-1 homolog 2, RRM domain, GST-SBP tag (RBFOX2, Homo sapiens, UniProt O43251-10, residues 100-194)
Technique: RNA Bind-n-Seq
Molecule type: RNA
Sample: in vitro
Concentration: 365 nM
Setting: natural RNA segment, single round, ends assumed
Baseline: no-protein control
Reading: higher = stronger binding
All sequences stand within: GGGAGUUCUACAGUCCGACGAUC … UGGAAUUCUCGGGUGCCAA
Residues (chain): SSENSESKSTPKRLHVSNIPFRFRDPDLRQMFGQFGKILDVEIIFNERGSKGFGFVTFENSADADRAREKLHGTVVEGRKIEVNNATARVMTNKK
Oligonucleotide	RBNS enrichment (R)
UCACUGCAGAAGCAACUCCUGCACUCGCCCAGACUUUACCAGGGGGCAAAGAUGCCCAUGACGACAUAGUCACCAGUGAAGUGGAUUUUACCUCAGAAGCAGUGACAGCC	0.208
CUUUUUCCCUUGGAUCAGCCAAGCGAAACUUGGAGCUUUGACAAGGAACUUUCCUAAGAAACCGCUGAUAACCAGGACAAAACACAACCAAGGGUACACGCAGGCAUGCA	3.33
GUCCCUACGCAAUAGCAGCUGCCUGUGGGGAAGAAGGGCUGCCCAGCCAGCUGGUUCUCCCGGGACACCAGCAGAUCCACACCCUGGGCACCUCCGUGUUUGGUCUUUUU	0.339
AUUUUGUCGCUGUUCUUUGUCCUUUAUUCUUUGUUUACUCUCUCGAAAAUAAAAGGGCUAAACUAUUAAUUAGAUAAUCAUUUCUUAGUGACUAAUACAGCGCUGAUCUG	0.384
CUGAGUGUGGGCUGGAAUUGUUCUGGUGUUGGGAGGGUCAGCUGGGAGUGUCCAUCUUUAGGGAAGAAGCAGACACAGGUGCCUUCAGCUGUCCAGUAUGGAGGAACACU	0.857
ACAGGGGUGGUUGCUAAGGUUCCGUACCUGCUCUUUAUAAAUUUAUAGUGGCUUUAUCCUGACAUAGGAAAGUUCAGCUGCAGGGGAGGAGGAGGAGACAGUCUUCCUCU	0.423
UAAGACAGCCGCUCCUUGGACACUCGGCUGGAAGUCUUUAGUGUGUUCCUCCAUACUACUGAAGCCCACCCACAUCCAAGAUCCCUUAUGUAAAAACUGUCUGCAAGGAC	0.276
AAAUAUAAGCGAACAGAAAGCCUUGGCCUGCGAGAGGCCACUGCCUCUCGGCCCAGCAAGAGAACAAUUCUUUCCGGGAUUGGCUGGCUCAGGUUGGGCGGGGCCGGUUC	0.245
AAAUAUGUAGCAGUCUGUUCCCGGAUGGCCCAGACGGAGGAAGCCACCCACCCCAGCCCUUCCGCUCUGCCUAGCUCUCCCCACCCCCUUCCAUAACCCAAUUCAGGUUU	0.381
UCUGGUGGAACCCUGCCCCUUACCAGCCUUGAUGGCAGCGGGAAUCUGGUGCUGGGGGCAGCCGGUGCAGCCCCGGGGAGCCCUGGCCUGGUGACCUCGCCGCUCUUCUU	0.539
AACCGUCUUCACAAUGUAUUUUCAUCACAGUUUAAGGAGCAUCAGCCGCUUCUCAAGUGGGUAGGGAAAGCAGAAAAACGUACGCAAGAGGACAUGGAUCCAAAAUGAUG	0.443
GGUCUCAGGCAAACAGUUGUUGAAGCUUGCUUCUGUGGCAUUUCUGAAUUGUGGCAGAGCUUAGAUCCUGCACCCAGGGGUCUUUUUUUCAAACAGCAUCUUGCUCAGUU	0.326

Sample 4
Target: Fragile X messenger ribonucleoprotein 1, C-terminal low-complexity region (Fmr1, Mus musculus, UniProt P35922)
Technique: RNA Bind-n-Seq
Molecule type: RNA
Sample: in vitro
Concentration: 200 nM
Setting: whole 134-nt RNA, ends assumed
With: 150 mM LiCl
Baseline: input library
Reading: higher = stronger binding
Library: 7-deaza-guanosine replaces G
All sequences stand within: GGGAGUUCUACAGUCCGACGAUC … UGGAAUUCUCGGGUGUCAAGG
Oligonucleotide	log2 enrichment
CAAGUCCUGUGCUACACAUCGUAUGUACCGAAUCGGGGCCCGGCCCGGGCCCGGGAAAGUAUUAUGUUACGCCGUUCGGAUCUGCACUUC	-1.69
UGCAUCUGCACUGGAGAAAUGGAAGACAGCAAUCCGGGAAGCUCAGACUUUCUCCAGGAUGCACGUGCUGCUUGGGAUGCUUGAUGCCUG	-1.63
CCUGUGCUACACAUCGUAUGUACCGAAUCGGGGUGGGGAAAAAAAGGGGUUUUUUUGGGGAAAGUAUUAUGUUACGCCGUUCGGAUCUGC	-1.89
CUCAAGUCCUGUGCUACACAUCGUAUGUACCGAAUCGGAGGUUUGGUUUUUGGAAAGUAUUAUGUUACGCCGUUCGGAUCUGCACUUCCA	-0.48
UCCUGUGCUACACAUCGUAUGUACCGAAUCGGGUUUUUUGGGUUUUUUGGUUUUUUGGGAAAGUAUUAUGUUACGCCGUUCGGAUCUGCA	-0.302
ACCAUGCAGGUGGGCAUCUUUGGGAAGUGGGACAAGGGGGGGAUAGGGAGGGGGGUAACACUUUGGGAACAGGUGGUCCCAGGUCGUUUC	1.41
UCCUGUGCUACACAUCGUAUGUACCGAAUCGGGUUUUUGGGGUUUUUGGGGUUUUUGGGGAAAGUAUUAUGUUACGCCGUUCGGAUCUGC	-1.11
UUAGGUGGCUCCAGGAUGUAUUUAACGUGCCCUUGGUCAUCCAGAUGACGGAUGACGAGAAGUAUCUGUGGAAGGACCUGACCCUGGACC	-1.54
CAAGUCCUGUGCUACACAUCGUAUGUACCGAAUCGGGGUUUGGGGUGGGGAGGGGAAAGUAUUAUGUUACGCCGUUCGGAUCUGCACUUC	-0.13
UCCUGUGCUACACAUCGUAUGUACCGAAUCGGGGUGGGGUUUUUGGGGUUUUUUUGGGGAAAGUAUUAUGUUACGCCGUUCGGAUCUGCA	-0.664
UCAAGUCCUGUGCUACACAUCGUAUGUACCGAAUCGGCCCGGCCCGGGGCCCGGGAAAGUAUUAUGUUACGCCGUUCGGAUCUGCACUUC	-1.36

Sample 5
Target: CCND3, cyclin fold, Cln2 fusion (human)
Technique: yeast growth competition, sequencing
Sample: yeast
Setting: weak parent motif
Baseline: not given
Reading: higher = stronger binding
Starting sequence: PKN2 docking peptide (human); VSAVQKLDFSDTM; partner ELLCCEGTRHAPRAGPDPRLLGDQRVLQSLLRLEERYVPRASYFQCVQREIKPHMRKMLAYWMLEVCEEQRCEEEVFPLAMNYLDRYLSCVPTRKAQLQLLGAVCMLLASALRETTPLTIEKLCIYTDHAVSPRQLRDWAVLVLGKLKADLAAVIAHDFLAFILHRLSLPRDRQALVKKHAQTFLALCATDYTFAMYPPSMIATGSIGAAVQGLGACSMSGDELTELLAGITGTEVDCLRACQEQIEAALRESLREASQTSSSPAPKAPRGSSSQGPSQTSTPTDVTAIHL
Substitution	normalised enrichment score
VSAVQKLDFADTM [S10A]	0.0701
VSCVQKLDFSDTM [A3C]	0.0923
VEAVQKLDFSDTM [S2E]	0.0642
VWAVQKLDFSDTM [S2W]	0.11
VSAVQKLDFSDSM [T12S]	0.14
VSAVQKLDFEDTM [S10E]	0.234
VSAVQKLDFSNTM [D11N]	0.164
VSAVQKLDFSDTT [M13T]	0.158
VSAVQKLDFSHTM [D11H]	0.142
VSAVQKLFFSDTM [D8F]	0.108
VSAVQKLDFSITM [D11I]	0.0361
VSAVQKLDMSDTM [F9M]	0.0936
VAAVQKLDFSDTM [S2A]	0.157

Single results of other studies
Molecule	target	assay	test system	conditions	scale	quantity	result
PhoQ, residues 284 288 289 292 302 303 AGGCYF	PhoP, residues 12 14 15 18 19 LHSVQ (Escherichia coli, UniProt P23836)	Sort-seq, refers to: YFP reporter	E. coli	PhoQ-PhoP variant library, with: 10 µM Mg2+	baseline: high Mg2+ state, higher = stronger signaling	fold induction	0.993
